{"data": "Published values pooled from the literature", "note": "Parts stem from different laboratories: compare values within a part only.", "sequence of UniProt P42681 (whole entry, looked up)": "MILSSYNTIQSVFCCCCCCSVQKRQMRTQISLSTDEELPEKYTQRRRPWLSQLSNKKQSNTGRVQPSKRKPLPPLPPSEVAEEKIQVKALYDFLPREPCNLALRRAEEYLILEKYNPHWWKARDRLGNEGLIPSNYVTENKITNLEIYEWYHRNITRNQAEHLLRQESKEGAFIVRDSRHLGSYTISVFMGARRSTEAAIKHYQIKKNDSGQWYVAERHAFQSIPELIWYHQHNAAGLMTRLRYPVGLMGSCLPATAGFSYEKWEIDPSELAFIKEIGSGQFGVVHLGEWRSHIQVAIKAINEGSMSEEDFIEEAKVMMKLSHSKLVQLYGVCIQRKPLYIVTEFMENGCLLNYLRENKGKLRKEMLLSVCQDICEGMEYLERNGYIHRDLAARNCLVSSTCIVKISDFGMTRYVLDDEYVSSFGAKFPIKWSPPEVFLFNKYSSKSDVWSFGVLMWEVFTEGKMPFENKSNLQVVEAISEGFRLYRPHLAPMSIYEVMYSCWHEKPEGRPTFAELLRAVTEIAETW", "sequence of UniProt Q8N4C8 (whole entry, looked up)": "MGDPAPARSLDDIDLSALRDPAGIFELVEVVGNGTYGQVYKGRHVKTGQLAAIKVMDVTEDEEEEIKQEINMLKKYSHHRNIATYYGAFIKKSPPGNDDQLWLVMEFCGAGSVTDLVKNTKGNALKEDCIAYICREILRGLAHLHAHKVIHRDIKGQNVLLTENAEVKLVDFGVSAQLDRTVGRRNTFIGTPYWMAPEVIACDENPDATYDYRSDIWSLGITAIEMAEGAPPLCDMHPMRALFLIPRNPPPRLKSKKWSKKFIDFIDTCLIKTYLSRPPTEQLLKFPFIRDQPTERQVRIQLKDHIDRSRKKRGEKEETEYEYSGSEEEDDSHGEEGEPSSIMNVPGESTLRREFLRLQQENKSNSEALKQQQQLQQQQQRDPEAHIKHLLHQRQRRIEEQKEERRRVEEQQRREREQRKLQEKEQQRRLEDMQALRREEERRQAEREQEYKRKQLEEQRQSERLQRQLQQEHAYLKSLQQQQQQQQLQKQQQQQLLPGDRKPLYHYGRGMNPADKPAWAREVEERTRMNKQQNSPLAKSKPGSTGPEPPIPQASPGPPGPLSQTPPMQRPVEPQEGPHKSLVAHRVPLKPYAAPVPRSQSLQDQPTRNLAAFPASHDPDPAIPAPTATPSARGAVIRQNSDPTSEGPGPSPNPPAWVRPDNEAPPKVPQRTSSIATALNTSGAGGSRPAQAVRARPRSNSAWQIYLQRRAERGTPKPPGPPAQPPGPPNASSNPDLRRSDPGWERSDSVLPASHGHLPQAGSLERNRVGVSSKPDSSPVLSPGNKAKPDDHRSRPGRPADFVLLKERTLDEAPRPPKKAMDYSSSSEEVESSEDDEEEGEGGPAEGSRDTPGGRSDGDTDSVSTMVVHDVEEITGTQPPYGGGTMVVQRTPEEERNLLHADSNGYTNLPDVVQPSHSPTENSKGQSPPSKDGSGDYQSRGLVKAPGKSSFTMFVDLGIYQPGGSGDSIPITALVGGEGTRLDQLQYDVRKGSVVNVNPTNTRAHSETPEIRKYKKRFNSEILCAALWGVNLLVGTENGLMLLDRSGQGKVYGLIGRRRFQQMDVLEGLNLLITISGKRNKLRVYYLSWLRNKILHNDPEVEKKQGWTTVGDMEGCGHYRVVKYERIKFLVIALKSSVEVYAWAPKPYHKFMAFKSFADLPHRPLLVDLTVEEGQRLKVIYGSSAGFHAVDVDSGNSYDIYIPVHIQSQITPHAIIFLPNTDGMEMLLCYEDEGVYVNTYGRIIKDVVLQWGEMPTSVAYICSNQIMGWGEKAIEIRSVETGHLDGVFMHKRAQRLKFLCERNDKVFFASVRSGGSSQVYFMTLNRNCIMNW", "sequence of UniProt O00750 (whole entry, looked up)": "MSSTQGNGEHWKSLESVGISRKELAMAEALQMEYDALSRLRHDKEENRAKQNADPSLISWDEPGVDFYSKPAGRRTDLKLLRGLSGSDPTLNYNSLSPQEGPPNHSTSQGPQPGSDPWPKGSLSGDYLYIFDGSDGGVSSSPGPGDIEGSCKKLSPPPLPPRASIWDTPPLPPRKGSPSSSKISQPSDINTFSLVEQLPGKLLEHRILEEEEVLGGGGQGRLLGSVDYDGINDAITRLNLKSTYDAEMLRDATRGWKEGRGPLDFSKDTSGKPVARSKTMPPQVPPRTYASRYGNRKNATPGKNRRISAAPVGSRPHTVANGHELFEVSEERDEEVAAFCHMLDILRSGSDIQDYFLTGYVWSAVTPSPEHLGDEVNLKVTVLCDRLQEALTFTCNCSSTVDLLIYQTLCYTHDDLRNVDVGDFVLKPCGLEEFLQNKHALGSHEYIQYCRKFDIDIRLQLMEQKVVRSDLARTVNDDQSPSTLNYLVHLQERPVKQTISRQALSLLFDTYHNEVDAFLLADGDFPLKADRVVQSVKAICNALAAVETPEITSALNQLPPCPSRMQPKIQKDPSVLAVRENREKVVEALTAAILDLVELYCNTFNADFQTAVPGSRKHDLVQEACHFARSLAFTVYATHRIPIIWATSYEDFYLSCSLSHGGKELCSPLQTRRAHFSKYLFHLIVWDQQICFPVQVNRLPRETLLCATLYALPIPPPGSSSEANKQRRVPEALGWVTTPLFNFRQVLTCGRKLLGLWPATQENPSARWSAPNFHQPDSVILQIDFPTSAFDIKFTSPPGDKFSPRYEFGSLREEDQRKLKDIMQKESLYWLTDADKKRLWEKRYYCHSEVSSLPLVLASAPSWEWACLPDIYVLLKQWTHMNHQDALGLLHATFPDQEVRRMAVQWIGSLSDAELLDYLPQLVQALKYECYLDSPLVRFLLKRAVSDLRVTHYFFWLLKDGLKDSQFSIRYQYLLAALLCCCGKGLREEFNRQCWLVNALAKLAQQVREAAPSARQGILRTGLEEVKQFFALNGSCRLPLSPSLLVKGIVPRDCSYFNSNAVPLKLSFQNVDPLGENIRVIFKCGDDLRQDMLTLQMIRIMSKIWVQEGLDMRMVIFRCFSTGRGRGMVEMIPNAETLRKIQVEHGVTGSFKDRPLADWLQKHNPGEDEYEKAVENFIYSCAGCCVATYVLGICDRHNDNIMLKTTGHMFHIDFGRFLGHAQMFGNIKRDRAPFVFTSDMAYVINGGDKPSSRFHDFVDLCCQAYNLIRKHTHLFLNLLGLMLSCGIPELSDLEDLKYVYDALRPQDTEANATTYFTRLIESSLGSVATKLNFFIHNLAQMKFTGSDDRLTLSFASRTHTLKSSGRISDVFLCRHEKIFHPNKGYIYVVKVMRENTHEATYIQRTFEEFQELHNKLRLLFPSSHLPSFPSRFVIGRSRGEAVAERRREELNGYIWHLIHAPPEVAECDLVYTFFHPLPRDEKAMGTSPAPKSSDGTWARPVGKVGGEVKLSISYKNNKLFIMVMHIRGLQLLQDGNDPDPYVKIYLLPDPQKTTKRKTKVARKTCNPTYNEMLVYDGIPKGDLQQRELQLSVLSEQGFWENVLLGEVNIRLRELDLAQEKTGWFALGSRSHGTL", "sequence of UniProt Q6P2M8 (whole entry, looked up)": "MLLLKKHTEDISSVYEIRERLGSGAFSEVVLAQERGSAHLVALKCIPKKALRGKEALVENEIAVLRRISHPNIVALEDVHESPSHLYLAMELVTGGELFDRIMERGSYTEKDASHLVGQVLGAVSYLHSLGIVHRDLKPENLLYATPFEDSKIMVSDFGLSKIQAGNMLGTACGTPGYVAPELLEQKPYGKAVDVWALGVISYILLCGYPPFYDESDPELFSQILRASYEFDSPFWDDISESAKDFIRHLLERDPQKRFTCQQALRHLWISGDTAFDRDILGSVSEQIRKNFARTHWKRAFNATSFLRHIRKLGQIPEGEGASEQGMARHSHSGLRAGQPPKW", "sequence of UniProt Q96BR1 (whole entry, looked up)": "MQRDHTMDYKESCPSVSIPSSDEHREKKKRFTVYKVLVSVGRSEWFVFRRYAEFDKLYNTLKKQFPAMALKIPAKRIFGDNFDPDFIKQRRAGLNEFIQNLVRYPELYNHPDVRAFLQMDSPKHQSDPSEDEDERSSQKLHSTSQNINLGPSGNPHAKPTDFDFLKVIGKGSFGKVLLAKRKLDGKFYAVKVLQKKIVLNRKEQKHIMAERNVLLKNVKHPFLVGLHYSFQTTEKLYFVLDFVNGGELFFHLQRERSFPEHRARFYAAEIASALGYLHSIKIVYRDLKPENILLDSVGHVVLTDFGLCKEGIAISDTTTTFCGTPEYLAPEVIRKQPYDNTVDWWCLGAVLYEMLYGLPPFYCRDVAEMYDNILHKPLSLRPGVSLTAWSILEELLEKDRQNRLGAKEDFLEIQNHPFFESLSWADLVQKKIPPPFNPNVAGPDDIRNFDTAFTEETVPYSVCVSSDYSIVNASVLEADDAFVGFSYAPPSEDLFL", "sequence of UniProt Q9H1R3 (whole entry, looked up)": "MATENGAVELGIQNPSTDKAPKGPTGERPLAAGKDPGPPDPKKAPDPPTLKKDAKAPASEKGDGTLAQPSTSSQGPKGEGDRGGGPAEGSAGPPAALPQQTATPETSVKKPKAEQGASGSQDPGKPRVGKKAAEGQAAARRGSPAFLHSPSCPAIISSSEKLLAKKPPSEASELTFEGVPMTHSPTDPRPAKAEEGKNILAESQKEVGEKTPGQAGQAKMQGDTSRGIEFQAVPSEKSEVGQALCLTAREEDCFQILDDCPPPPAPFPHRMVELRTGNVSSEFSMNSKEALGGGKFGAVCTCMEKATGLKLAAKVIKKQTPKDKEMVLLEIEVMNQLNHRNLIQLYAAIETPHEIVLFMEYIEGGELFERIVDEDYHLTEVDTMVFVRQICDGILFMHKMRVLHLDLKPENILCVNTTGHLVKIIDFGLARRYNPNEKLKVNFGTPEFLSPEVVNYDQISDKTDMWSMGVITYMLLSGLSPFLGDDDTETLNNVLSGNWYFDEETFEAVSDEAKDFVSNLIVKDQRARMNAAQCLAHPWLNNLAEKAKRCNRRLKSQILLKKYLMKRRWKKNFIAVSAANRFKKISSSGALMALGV"}
{"data": "Set 1", "Structure (SMILES)": "Nc1nccc(-c2c(-c3ccc(F)cc3)ncn2C2CCNCC2)n1", "effect on": "enzyme activity", "action": "inhibitor", "concentration": "0.5 µM", "relative to": "control"}
{"target": "Calcium/calmodulin-dependent protein kinase type 1B (PNCK, Homo sapiens, UniProt Q6P2M8)", "remaining activity [%]": 94.3}
{"target": "Tyrosine-protein kinase TXK (TXK, Homo sapiens, UniProt P42681)", "remaining activity [%]": 99.1}
{"target": "Serine/threonine-protein kinase tousled-like 2 (TLK2, Homo sapiens, UniProt Q86UE8)", "remaining activity [%]": 95.1}
{"target": "Dual specificity mitogen-activated protein kinase kinase 1 (MAP2K1, Homo sapiens, UniProt Q02750)", "remaining activity [%]": 98.2}
{"target": "Dual specificity protein kinase CLK3 (CLK3, Homo sapiens, UniProt P49761)", "remaining activity [%]": 102}
{"target": "RAC-beta serine/threonine-protein kinase (AKT2, Homo sapiens, UniProt P31751)", "remaining activity [%]": 94.8}
{"target": "Myosin-IIIb (MYO3B, Homo sapiens, UniProt Q8WXR4)", "remaining activity [%]": 97.9}
{"target": "Calcium/calmodulin-dependent protein kinase type IV (CAMK4, Homo sapiens, UniProt Q16566)", "remaining activity [%]": 103}
{"target": "Mitogen-activated protein kinase 1 (MAPK1, Homo sapiens, UniProt P28482)", "remaining activity [%]": 96.6}
{"target": "MAP/microtubule affinity-regulating kinase 4 (MARK4, Homo sapiens, UniProt Q96L34)", "remaining activity [%]": 97.4}
{"target": "Serine/threonine-protein kinase Nek3 (NEK3, Homo sapiens, UniProt P51956)", "remaining activity [%]": 99}
{"target": "Serine/threonine-protein kinase MARK2 (MARK2, Homo sapiens, UniProt Q7KZI7)", "remaining activity [%]": 97}
{"target": "Misshapen-like kinase 1 (MINK1, Homo sapiens, UniProt Q8N4C8)", "remaining activity [%]": 96.1}
{"data": "Set 2", "SMILES": "O=C(Nc1ccccc1)Nc1cccc(Oc2ccc3nccn3n2)c1", "technique": "competitive binding panel", "concentration": "1 µM", "relative to": "vehicle"}
{"target": "Calcium/calmodulin-dependent protein kinase type 1 (CAMK1, Homo sapiens, UniProt Q14012)", "remaining binding": "100%"}
{"target": "Serine/threonine-protein kinase N2 (PKN2, Homo sapiens, UniProt Q16513)", "remaining binding": "100%"}
{"target": "Myosin light chain kinase 2, skeletal/cardiac muscle (MYLK2, Homo sapiens, UniProt Q9H1R3)", "remaining binding": "100%"}
{"target": "Serine/threonine-protein kinase Sgk3 (SGK3, Homo sapiens, UniProt Q96BR1)", "remaining binding": "91%"}
{"target": "Mitogen-activated protein kinase kinase kinase 2 (MAP3K2, Homo sapiens, UniProt Q9Y2U5)", "remaining binding": "100%"}
{"target": "Phosphatidylinositol 4-kinase beta (PI4KB, Homo sapiens, UniProt Q9UBF8)", "refers to": "PIK4CB", "remaining binding": "100%"}
{"target": "Mitogen-activated protein kinase kinase kinase 20 (MAP3K20, Homo sapiens, UniProt Q9NYL2)", "refers to": "ZAK", "remaining binding": "65%"}
{"target": "Rhodopsin kinase GRK7 (GRK7, Homo sapiens, UniProt Q8WTQ7)", "remaining binding": "100%"}
{"data": "Set 3", "SMILES": "O=C1CCc2cc(Nc3cc(OC4CCOCC4)c([N+](=O)[O-])cc3Cl)ccc2N1", "effect on": "cell-free assay", "technique": "competition with immobilised ligand", "concentration": "1 µM"}
{"target": "Cyclin-dependent kinase-like 1 (CDKL1, Homo sapiens, UniProt Q00532)", "remaining binding [%]": 78}
{"target": "Tyrosine-protein kinase ABL1, phosphorylated (ABL1, Homo sapiens, UniProt P00519, M351T)", "remaining binding [%]": 100}
{"target": "1-phosphatidylinositol 3-phosphate 5-kinase (PIKFYVE, Homo sapiens, UniProt Q9Y2I7)", "remaining binding [%]": 83}
{"target": "Hepatocyte growth factor receptor (MET, Homo sapiens, UniProt P08581)", "remaining binding [%]": 80}
{"target": "Citron Rho-interacting kinase (CIT, Homo sapiens, UniProt O14578)", "remaining binding [%]": 100}
{"target": "Tyrosine-protein kinase TXK (TXK, Homo sapiens, UniProt P42681)", "remaining binding [%]": 79}
{"target": "Phosphatidylinositol 4-phosphate 3-kinase C2 domain-containing subunit beta (PIK3C2B, Homo sapiens, UniProt O00750)", "remaining binding [%]": 89}
{"target": "Ephrin type-B receptor 1 (EPHB1, Homo sapiens, UniProt P54762)", "remaining binding [%]": 83}
{"target": "Ribosomal protein S6 kinase alpha-4, C-terminal kinase domain (RPS6KA4, Homo sapiens, UniProt O75676)", "remaining binding [%]": 72}
{"data": "Set 4", "cell line": "A-375", "concentration": "100 µM", "time": "36 h"}
{"SMILES": "C=CC1=C(C(=O)O)N2C(=O)[C@@H](NC(=O)/C(=N\\O)c3csc(N)n3)[C@H]2SC1", "viability": "105%"}
{"SMILES": "Cc1c(C(=O)Nc2ccc(N3C[C@@H](C)O[C@@H](C)C3)nc2)cccc1-c1ccc(OC(F)(F)F)cc1", "viability": "2.95%"}
{"SMILES": "O=C1C(CC[S+]([O-])c2ccccc2)C(=O)N(c2ccccc2)N1c1ccccc1 (centres unmarked)", "viability": "104%"}
{"SMILES": "CN(C/C=C/C#CC(C)(C)C)Cc1cccc2ccccc12", "viability": "22.8%"}
{"SMILES": "CN(C)c1nc(N(C)C)nc(N(C)C)n1", "viability": "99%"}
{"SMILES": "CCn1cc(C(=O)O)c(=O)c2cc3c(cc21)OCO3", "viability": "106%"}
{"SMILES": "CN1C[C@@H]2c3ccccc3Oc3ccc(Cl)cc3[C@H]2C1 (racemic)", "viability": "-0.838%"}
{"SMILES": "O=C(/C=C/C=C/c1ccc2c(c1)OCO2)N1CCCCC1", "viability": "64.8%"}
{"note": "Excerpt of the above (set 4):"}
{"SMILES": "C=CC1=C(C(=O)O)N2C(=O)[C@@H](NC(=O)/C(=N\\O)c3csc(N)n3)[C@H]2SC1", "viability": "105%"}
{"SMILES": "Cc1c(C(=O)Nc2ccc(N3C[C@@H](C)O[C@@H](C)C3)nc2)cccc1-c1ccc(OC(F)(F)F)cc1", "viability": "2.95%"}
{"SMILES": "O=C1C(CC[S+]([O-])c2ccccc2)C(=O)N(c2ccccc2)N1c1ccccc1 (centres unmarked)", "viability": "104%"}
{"SMILES": "CN(C/C=C/C#CC(C)(C)C)Cc1cccc2ccccc12", "viability": "22.8%"}
{"SMILES": "CN(C)c1nc(N(C)C)nc(N(C)C)n1", "viability": "99%"}
